Published values pooled from the literature.
Each line is one published result; not all experiments were run side by side. Values joined by “and” are separate records of one study, mostly repeats; a detail may differ. ± gives the spread as reported.
Dipeptidyl peptidase 8: Dipeptidyl peptidase 8 (Homo sapiens, UniProt Q6V1X1)
MAPK8: Mitogen-activated protein kinase 8 (MAPK8, Homo sapiens, UniProt P45983)
STING1 H232R: Stimulator of interferon genes protein (STING1, Homo sapiens, UniProt Q86WV6, H232R)
EEF2: Elongation factor 2 (EEF2, Homo sapiens, UniProt P13639)

SMILES | target | assay | system | conditions | how to read | measurement | value
CCCCCC=CC=C1C(=O)C=CC1CC=CCCCC(=O)O (stereo not shown) | Ribonucleoside-diphosphate reductase large subunit (Homo sapiens, UniProt P23921) | competitive isoTOP-ABPP, item: RRM1 cysteine peptide | Ramos soluble proteome | 100 µM, with: iodoacetamide probe | reference: DMSO over compound-treated, higher = stronger cysteine blockade | isoTOP-ABPP competition ratio | 3
CC1(C)CN(C(=O)Cn2c(=O)c(C(=O)NCc3ccc(Cl)cc3)cc3cccnc32)C1 | DNA polymerase catalytic subunit (Human cytomegalovirus, UniProt P08546) | enzyme activity, inhibitor | – | – | – | Hill slope | 0.7
CC(/C=C/C(=O)NO)=C\[C@@H](C)C(=O)c1ccc(N(C)C)cc1 | HDAC8 (Homo sapiens, UniProt Q9BY41) | ITC | Tris-HCl buffer | concentration not given, 288 K | – | binding stoichiometry | 0.85
CC(C)(C)OC(=O)N1CCN(CC(OCc2ccc(Cl)cc2)c2ccc(Cl)cc2Cl)CC1 (stereo not shown) | ULK1 (Homo sapiens, UniProt O75385) | enzyme activity, inhibitor, ADP detection | – | 0.1 µM | – | activity vs control | 133%
CC(=O)N[C@H]1[C@H]([C@H](O)[C@H](O)CNC(=O)c2ccc(-c3ccccc3)cc2)O[C@@](OCc2cn(CC(O)Cn3c([N+](=O)[O-])cnc3C)nn2)(C(=O)O)C[C@@H]1O (stereo partly shown) | CD22 (Homo sapiens, UniProt P20273) | isothermal titration calorimetry | – | concentration not given | – | binding stoichiometry | 1.28 ± 0.07
C/C1=C\CC/C(C)=C/CC(C)(C)/C=C/C1 | Trpv1 (Rattus norvegicus, UniProt O35433, S512A/T550A/Y511A) | inhibitor, outside-out patch clamp | – | 100 µM, 5 min, vanilloid-site triple mutant, with: pH 5.5 activation | – | remaining current fraction | 0.07 ± 0.02
CC(C)Oc1cc(Cl)ccc1CNc1cc(-c2ccccc2)nc2ncnn12 | GPR3 (Homo sapiens, UniProt P46089) | cAMP reporter | human cells | 1 µM | higher is more cAMP | cAMP luminescence | 24500 a.u. and 19200 a.u. and 2860 a.u. and 2520 a.u. and 11500 a.u. and 28700 a.u. and 7950 a.u. and 5800 a.u.
O=C(NCCCCOP(=O)(O)OP(=O)(O)OP(=O)(O)O)OCC1c2ccccc2-c2ccccc21 | DNA polymerase beta (POLB, Homo sapiens, UniProt P06746) | substrate | – | undamaged template, G | reference: dCTP over compound | efficiency relative to dCTP | 60 fold
CCC1(CC)C(=O)N(c2cccc(CCC(=O)O)c2)C1=O.O=C(O)C(F)(F)F | Dipeptidyl peptidase 8 | enzyme activity, inhibitor | – | 5 µM | – | activity vs control | 20%
C[C@@H]1C[C@H](Nc2ccccc2)c2cc(F)ccc2N1C(=O)c1ccc(Cl)c(F)c1 | Ecdysone receptor (Aedes albopictus, UniProt Q9U3Y4) | ligand binding, inhibitor | intact cells | with: [3H]ponasterone A | direction not given | pIC50 Z-score | 0.83
Cc1cnc2nc1Nc1cccc(c1)COC/C=C/COCc1cc(ccc1OCCN1CCOCC1)N2 | MAP3K13 (Homo sapiens, UniProt O43283) | – | – | concentration not given, kinase construct LZK | reference: control | binding | 94%
CN(C)c1ccc(-n2cc(COC(=O)[C@@]3(C)C=C(C(=O)OC(C)(C)C)C(=O)CC3)nn2)cc1 | MAPK8 | D-peptide binding, inhibitor, FP peptide displacement | – | 12.5 µM | lower is stronger displacement | fraction bound | 0.907
CCOC(=O)[C@](CC)(CCCSCCOCCOCCNC(=O)OC(C)(C)C)NC(=O)c1ccc(C2CC2)c(Cc2ccc(F)cc2)n1 | Cnr2 (Mus musculus, UniProt P47936) | cAMP, agonist | – | – | – | Emax | 77%
COc1cc(C2C(NC(=O)c3ccc(NC(=O)OC(C)(C)C)cc3)(C(=O)O)C(c3ccc(OC(=O)c4cccs4)c(OC)c3)C2(NC(=O)c2ccc(NC(=O)OC(C)(C)C)cc2)C(=O)O)ccc1OC(=O)c1cccs1 (stereo not shown) | GLP1R (Homo sapiens, UniProt P43220, Y145A) | cAMP accumulation, agonist | – | receptor mutant | reference: wild type | Emax | 93.8 ± 4.12%
C=CC(=O)N1C[C@H](C)N(c2nc(OC[C@@]34CCCN3C[C@H](F)C4)nc3c(F)c(-c4ccc(F)c5sc(N)c(C#N)c45)c(C(F)(F)F)cc23)C[C@H]1C | GTPase KRas, GppNHp-bound (KRAS, Homo sapiens, UniProt P01116) | SPR | – | wild type | reference: GppNHp-bound over GDP-bound | on-rate decrease | 20 fold
CCC1(CC)C(=O)N(c2cccc(CN3CCN(Cc4ccc(Br)c5ccccc45)CC3)c2)C1=O.O=C(O)C(F)(F)F | Dipeptidyl peptidase 8 | enzyme activity, inhibitor | – | 5 µM | – | activity vs control | 7.3%
CN(C(=O)[C@@H]1CSCC(=O)N[C@@H](Cc2ccccc2)C(=O)N[C@@H](CO)C(=O)N[C@@H](Cc2ccccc2)C(=O)N[C@@H](Cc2ccc(O)cc2)C(=O)N[C@@H](Cc2ccc(O)cc2)C(=O)N[C@@H](Cc2c[nH]cn2)C(=O)N[C@@H](Cc2c[nH]c3ccccc23)C(=O)N1)[C@@H](Cc1ccccc1)C(N)=O | STING1 H232R | thermal stability, DSF | – | 200 µM | – | ΔTm | 9.02 °C
O=C1c2sc(-c3ccc(N4CCC(F)C4)nc3F)nc2CCN1c1cccnc1 (stereo not shown) | SKCa channel | radioligand binding | – | 1 µM, with: antagonist radioligand | – | inhibition | -12%
CC(C)C[C@@H]1NC(=O)[C@H](Cc2ccccc2)NC(=O)CSC[C@@H](C(=O)NCC(N)=O)NC(=O)[C@H](Cc2ccc(O)cc2)NC(=O)[C@H](C(C)C)NC(=O)[C@H](Cc2ccccc2)NC(=O)[C@H](Cc2ccc(O)cc2)NC(=O)[C@H](Cc2ccccc2)NC(=O)[C@H](CC(=O)O)NC(=O)[C@H](CC(N)=O)NC(=O)[C@H](CC(N)=O)NC(=O)[C@H](Cc2ccc(O)cc2)NC(=O)[C@H](C(C)C)NC(=O)[C@H](Cc2ccccc2)NC1=O | STING1 H232R | thermal stability, DSF | – | 200 µM | – | ΔTm | 0.24 °C

SMILES | target | assay | system | conditions | how to read | measurement | value
Cn1c(=O)n(C2CCC(=O)NC2=O)c2ccc(C3CCN(CC(=O)Nc4cccc(CS(=O)(=O)N5CC[C@H](Nc6cccc(-c7sc(C(=O)O)c(OCC(=O)O)c7Cl)c6)CC5(C)C)c4)CC3)cc21 (stereo partly shown) | PTPN2 (Homo sapiens, UniProt P17706, H30A/P33A/R35A) | degrader, bio-layer interferometry | – | 15.6 nM | higher = more binding | BLI binding response | 0.132 a.u.
O=[N+]([O-])c1cc(Br)cc([N+](=O)[O-])c1NS(=O)(=O)c1ccc(Br)cc1 | PYL10, with HAB1 (Arabidopsis thaliana, UniProt Q8H1R0) | antagonist | – | 5 µM, with: ABA 5 µM | higher = more HAB1 activity | HAB1 phosphatase activity | 0.087 a.u. and 0.081 a.u. and 0.085 a.u.
C#CC[C@H](NC(=O)c1ccc(C(=O)c2ccccc2)cc1)C(=O)NCCCCCC(=O)N[C@@H](CCCCNC(=O)CSCCNC(=O)CCNC(=O)[C@H](O)C(C)(C)COP(=O)(O)OP(=O)(O)OC[C@H]1O[C@@H](n2cnc3c(N)ncnc32)[C@H](O)[C@@H]1OP(=O)(O)O)C(N)=O | EEF2 | affinity enrichment LC-MS/MS | HEK293 cell extract, PCAF transfected | – | reference: 1 over empty vector | enrichment ratio | 2.2
Cc1cc(NC(=O)[C@H](O)c2cc(F)cc(F)c2)ccc1-c1cnc(N)c(C(=O)NC(C)C)c1 | HASPIN (Homo sapiens, UniProt Q8TF76) | binding, competition with immobilised ligand | – | 1 µM | – | remaining binding | 97%
CCCCCCCCCCCCCCCC(=O)OCC(CSC[C@H](N)C(=O)N[C@@H](CO)C(=O)N[C@@H](CCCCN)C(=O)N[C@@H](CCCCN)C(=O)N[C@@H](CCCCN)C(=O)N[C@@H](CCCCN)C(=O)NCCCCCC(=O)N[C@@H](CCCCN)C(=O)N[C@@H](CC(C)C)C(=O)N[C@H](C(=O)N[C@@H](Cc1ccccc1)C(=O)N[C@@H](Cc1ccccc1)C(=O)N[C@@H](Cc1ccc2ccccc2c1)C(=O)O)C(C)C)OC(=O)CCCCCCCCCCCCCCC (stereo partly shown) | Amyloid-beta precursor protein, fibrillar amyloid-beta (APP, Homo sapiens, UniProt P05067) | TEM | – | 2.0 eq, 5 h, fibril 1, with: APP 20 µM | – | fibril diameter | 97.8 nm
Cc1cn(CC(=O)N(CC(=O)N[C@H]2CCC[C@@H]2N(CC(=O)N[C@H]2COC[C@@H]2N(CC(=O)N[C@H]2COC[C@@H]2N(CC(=O)N[C@H]2COC[C@@H]2N(CC(=O)NCCOCCOCC(N)=O)C(=O)Cn2cnc3c(N)ncnc32)C(=O)Cn2cc(C)c(=O)[nH]c2=O)C(=O)Cn2cnc3c(N)ncnc32)C(=O)Cn2cnc3c(=O)[nH]c(N)nc32)[C@H]2CCC[C@@H]2NC(=O)CN(C(=O)Cn2cnc3c(=O)[nH]c(N)nc32)[C@H]2CCC[C@@H]2NC(=O)CN(C(=O)Cn2cc(C)c(=O)[nH]c2=O)[C@H]2COC[C@@H]2NC(=O)CN(C(=O)Cn2cnc3c(N)ncnc32)[C@H]2COC[C@@H]2NC(=O)CN(C(=O)Cn2cnc3c(=O)[nH]c(N)nc32)[C@H]2COC[C@@H]2N)c(=O)[nH]c1=O | complementary RNA | duplex formation, UV melting curve fit | PBS | 1 µM | – | ΔS | -168 ± 4.2 cal/mol/K
C#CCOC(=O)[C@]1(C)C=C(C(=O)OC(C)(C)C)C(=O)CC1 | MAPK8 | enzyme activity, D-SENSOR | – | 0.06097 µM, mean of replicates | – | normalized kinase activity | 1.05
CCCCCC(O)/C=C/C=O (stereo not shown) | PSMC6 (Homo sapiens, UniProt P62333) | acylphosphate-ATP probe SILAC-ABPP | ZAK-transfected HEK293T | 100 µM, with: acylphosphate-ATP probe | reference: DMSO over compound-treated | probe labelling ratio | 0.64
Cc1cccc2c1N(C(=O)n1ccnn1)CC2 | KAI2 (Arabidopsis thaliana, UniProt Q9SZU7, F26A) | ITC | – | F26A mutant | reference: wild type | relative affinity | 14.3%
COC(=O)[C@@]1(C)C=C(C(=O)Nc2cccc(C(=O)Nc3ccc(Nc4nccc(-c5cccnc5)n4)c(C)c3)c2)C(=O)CC1 | MAPK8 | enzyme activity, inhibitor | – | 4.938 µM, 6 h, unit not given, with: GSH 10 mM pre-incubation | reference: vehicle | remaining activity | 0.0364
Cc1cc(C(=O)Nc2nc3cccc(C)c3n2[C@H]2CCCCN(C(=O)/C=C/CN(C)C)C2)ccn1 | CDC2-like kinase 1 (Trypanosoma brucei brucei, UniProt Q382U0) | ADP-Glo | – | 0.07812 µM | – | kinase activity | 71.8%
C[Si](C)(C)C[C@H](CN)CC(=O)O | DRD2 (Homo sapiens, UniProt P14416) | ligand displacement, radioligand | – | 250 µM | – | inhibition | -19%
CC(C)(C)OC(=O)C1=C[C@@](C)(C(=O)OCC#Cc2ccncc2)CCC1=O | MAPK8 | D-peptide binding, inhibitor, FP peptide displacement | – | 3.125 µM | lower is stronger displacement | fraction bound | 0.862
CC(C=CC=C(C)C=CC1=C(C)CCCC1(C)C)=CC=O | Rhodopsin (RHO, Homo sapiens, UniProt P08100, T17M) | immunostaining, item: opsin | COS-7 transfected | 5.00 µM, unit not given | reference: surface over total stained cells | plasma membrane localization | 0.38
COC(=O)[C@]1(Cc2ccccc2)C=C(C(=O)OC(C)(C)C)C(=O)CC1 | MAPK8 | D-peptide binding, inhibitor, FP peptide displacement | – | 500 µM | lower is stronger displacement | fraction bound | -0.0933
CCCCCCCCCCCCC/C=C/C=O | EEF2 | competitive isoTOP-ABPP | Ramos soluble proteome | 100 µM, with: iodoacetamide probe | reference: DMSO over compound-treated, higher = stronger cysteine blockade | isoTOP-ABPP competition ratio | 1
C=C1CC2(C(=O)OC)C=C(C(=O)OC(C)(C)C)C(=O)C1C2 (stereo not shown) | MAPK8 | D-peptide binding, inhibitor, FP peptide displacement | – | 7.812 µM | lower is stronger displacement | fraction bound | 0.893
O=C(NC[C@@H](Cc1ccc(F)cc1)N1CCC(O)(C(F)(F)F)CC1)C1(c2ccc(Cl)cc2)CCCC1 | TRPA1 (Homo sapiens, UniProt O75762, V875M) | calcium influx, agonist | – | – | reference: V875M mutant over wild type | EC50 fold change | 2.1

Some of these lines once more:
SMILES | target | assay | system | conditions | how to read | measurement | value
C=CC(=O)N1C[C@H](C)N(c2nc(OC[C@@]34CCCN3C[C@H](F)C4)nc3c(F)c(-c4ccc(F)c5sc(N)c(C#N)c45)c(C(F)(F)F)cc23)C[C@H]1C | GTPase KRas, GppNHp-bound (KRAS, Homo sapiens, UniProt P01116) | SPR | – | wild type | reference: GppNHp-bound over GDP-bound | on-rate decrease | 20 fold
C#CCOC(=O)[C@]1(C)C=C(C(=O)OC(C)(C)C)C(=O)CC1 | MAPK8 | enzyme activity, D-SENSOR | – | 0.06097 µM, mean of replicates | – | normalized kinase activity | 1.05
Cc1cnc2nc1Nc1cccc(c1)COC/C=C/COCc1cc(ccc1OCCN1CCOCC1)N2 | MAP3K13 (Homo sapiens, UniProt O43283) | – | – | concentration not given, kinase construct LZK | reference: control | binding | 94%
CCOC(=O)[C@](CC)(CCCSCCOCCOCCNC(=O)OC(C)(C)C)NC(=O)c1ccc(C2CC2)c(Cc2ccc(F)cc2)n1 | Cnr2 (Mus musculus, UniProt P47936) | cAMP, agonist | – | – | – | Emax | 77%
CC(C)Oc1cc(Cl)ccc1CNc1cc(-c2ccccc2)nc2ncnn12 | GPR3 (Homo sapiens, UniProt P46089) | cAMP reporter | human cells | 1 µM | higher is more cAMP | cAMP luminescence | 24500 a.u. and 19200 a.u. and 2860 a.u. and 2520 a.u. and 11500 a.u. and 28700 a.u. and 7950 a.u. and 5800 a.u.
